# Assay results gathered from unrelated publications.
# Each numbered part is a random draw from the data of one study; scales do not carry over between parts. Values joined by “and” are separate records of one study, mostly repeats; a detail may differ.
# UniProt P62344, sequence (whole entry, looked up): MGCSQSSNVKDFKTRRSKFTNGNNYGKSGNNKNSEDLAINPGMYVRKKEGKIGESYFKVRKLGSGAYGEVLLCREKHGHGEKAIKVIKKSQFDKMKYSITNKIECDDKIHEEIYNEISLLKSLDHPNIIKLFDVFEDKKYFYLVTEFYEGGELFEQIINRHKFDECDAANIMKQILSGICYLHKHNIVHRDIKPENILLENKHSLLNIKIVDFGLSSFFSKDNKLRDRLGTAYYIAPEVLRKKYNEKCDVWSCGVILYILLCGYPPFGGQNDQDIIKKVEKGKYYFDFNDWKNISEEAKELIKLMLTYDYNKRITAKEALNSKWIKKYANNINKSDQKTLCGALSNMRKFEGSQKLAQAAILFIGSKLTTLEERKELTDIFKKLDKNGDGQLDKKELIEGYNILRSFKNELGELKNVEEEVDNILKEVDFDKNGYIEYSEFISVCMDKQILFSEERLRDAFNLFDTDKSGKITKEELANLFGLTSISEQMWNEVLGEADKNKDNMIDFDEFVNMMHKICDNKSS

# Set 1 — method: Incucyte 3D growth; concentration: 30 µM; reading: higher = more growth
# SMILES: CC(C)(C(=O)O)[C@H](NC(=O)Cc1cccc(I)c1)c1ccc2oc(=O)[nH]c2c1
cell line,time,spheroid area
A375,216.52 h,1.7e+08 a.u. and 1.51e+08 a.u. and 1.43e+08 a.u. and 1.57e+08 a.u. and 1.77e+08 a.u. and 1.61e+08 a.u.
KP-4,54 h,1.43e+07 a.u. and 1.27e+07 a.u. and 1.51e+07 a.u. and 1.5e+07 a.u. and 1.31e+07 a.u. and 1.39e+07 a.u.
PC-9,96 h,6.88e+08 a.u. and 7.15e+08 a.u. and 7.07e+08 a.u. and 7.16e+08 a.u. and 7.12e+08 a.u. and 7.09e+08 a.u.
PC-9,102 h,7.44e+08 a.u. and 7.22e+08 a.u. and 7.49e+08 a.u. and 7.61e+08 a.u. and 7.56e+08 a.u. and 7.55e+08 a.u.
IPC-298,0 h,1.31e+07 a.u. and 1.35e+07 a.u. and 1.48e+07 a.u. and 1.54e+07 a.u. and 1.43e+07 a.u. and 1.63e+07 a.u.
KP-4,246 h,2.36e+07 a.u. and 6.03e+07 a.u. and 5.26e+07 a.u. and 8.34e+07 a.u. and 4.45e+07 a.u. and 5.76e+07 a.u.
NCI-H1437,120 h,2.62e+07 a.u. and 3.4e+07 a.u. and 3.14e+07 a.u. and 2.99e+07 a.u. and 2.45e+07 a.u. and 2.64e+07 a.u.
NCI-H358,96 h,4.01e+06 a.u. and 3.18e+06 a.u. and 4.2e+06 a.u.

# Set 2 — cell line: A-375; concentration: 100 µM; time: 18 h
Compound,viability [%]
COC(=O)C1=C(C)NC(C)=C(C(=O)O[C@@H]2CCCN(Cc3ccccc3)C2)[C@@H]1c1cccc([N+](=O)[O-])c1 (racemic),39.3
Cc1c(Nc2ncccc2C(=O)O)cccc1C(F)(F)F,86.2
CC[C@H]1OC(=O)[C@H](C)[C@@H](O[C@H]2C[C@@](C)(OC)[C@@H](O)[C@H](C)O2)[C@H](C)[C@@H](O[C@@H]2O[C@H](C)C[C@H](N(C)C)[C@H]2O)[C@](C)(O)C[C@@H](C)CN(C)[C@H](C)[C@@H](O)[C@]1(C)O,89
CNC1(C)C2CCC(C2)C1(C)C (stereo not shown),107
CC(=O)O[C@H]1CC[C@@]2(C)C(=CC[C@@H]3[C@@H]2CC[C@]2(C)C(c4cccnc4)=CC[C@@H]32)C1,47.6
CCOC(=O)c1ncn2c1CN(C)C(=O)c1cc(F)ccc1-2,93.7
CCN(CC)Cc1cc(Nc2ccnc3cc(Cl)ccc23)ccc1O,55
Cc1nc(-c2ccc(OCC(C)C)c(C#N)c2)sc1C(=O)O,94.8

# Further values, each from its own experiment
# HLA class I histocompatibility antigen, C alpha chain allele C*04:01: HLA class I histocompatibility antigen, C alpha chain, allele C*04:01 (Homo sapiens, UniProt P10321)
Molecule,target,observed,method,form,concentration,quantity,result
LFPELECFF,"HLA class I histocompatibility antigen, C alpha chain allele C*04:01",peptide-MHC binding,,peptide,concentration not given,binding,inactive
O=C(O)[C@@H]1[C@@H](Cn2nnc3ccccc3c2=O)CC[C@H]1C(=O)c1ccc(OCCC2CCOCC2)cc1,"CDPK1 (Plasmodium falciparum, UniProt P62344)",cell-free assay,competition with immobilised ligand,,1 µM,remaining binding,100%
YFYYNAFHWAI,"HLA class I histocompatibility antigen, C alpha chain allele C*04:01",peptide-MHC binding,,peptide,concentration not given,binding,inactive
